Assay results collected from several papers.
Lines come from different studies, so protocols differ. Numbers after ± are the reported error. Values after ≈ are worked out from the molar mass of the structure shown.
Uncharacterized protein: Uncharacterized protein (Trypanosoma brucei brucei, UniProt Q386Q8)
Chain of UniProt Q9UKP6 (whole entry, looked up): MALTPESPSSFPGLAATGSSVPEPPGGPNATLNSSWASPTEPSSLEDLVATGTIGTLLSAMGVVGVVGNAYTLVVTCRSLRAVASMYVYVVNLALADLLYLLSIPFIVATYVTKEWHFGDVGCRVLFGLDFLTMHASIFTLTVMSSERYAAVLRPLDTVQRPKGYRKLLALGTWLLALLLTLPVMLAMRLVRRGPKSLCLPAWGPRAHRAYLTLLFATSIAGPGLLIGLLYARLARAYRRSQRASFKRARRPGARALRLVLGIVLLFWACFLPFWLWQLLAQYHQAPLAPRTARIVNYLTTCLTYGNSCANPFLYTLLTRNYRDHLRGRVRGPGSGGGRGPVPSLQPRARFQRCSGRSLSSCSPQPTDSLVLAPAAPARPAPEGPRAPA
Chain of UniProt P41146 (whole entry, unmodified, looked up): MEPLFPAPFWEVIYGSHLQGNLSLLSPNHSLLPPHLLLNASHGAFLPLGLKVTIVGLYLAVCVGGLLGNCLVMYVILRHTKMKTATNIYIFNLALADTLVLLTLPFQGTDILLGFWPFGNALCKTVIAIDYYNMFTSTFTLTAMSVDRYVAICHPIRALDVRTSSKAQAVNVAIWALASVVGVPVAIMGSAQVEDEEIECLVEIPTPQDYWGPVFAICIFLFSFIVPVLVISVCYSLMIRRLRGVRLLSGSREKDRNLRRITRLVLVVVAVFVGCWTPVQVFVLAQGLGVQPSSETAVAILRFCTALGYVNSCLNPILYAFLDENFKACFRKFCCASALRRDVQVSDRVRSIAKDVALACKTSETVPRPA
Chain of UniProt P10635 (whole entry, looked up): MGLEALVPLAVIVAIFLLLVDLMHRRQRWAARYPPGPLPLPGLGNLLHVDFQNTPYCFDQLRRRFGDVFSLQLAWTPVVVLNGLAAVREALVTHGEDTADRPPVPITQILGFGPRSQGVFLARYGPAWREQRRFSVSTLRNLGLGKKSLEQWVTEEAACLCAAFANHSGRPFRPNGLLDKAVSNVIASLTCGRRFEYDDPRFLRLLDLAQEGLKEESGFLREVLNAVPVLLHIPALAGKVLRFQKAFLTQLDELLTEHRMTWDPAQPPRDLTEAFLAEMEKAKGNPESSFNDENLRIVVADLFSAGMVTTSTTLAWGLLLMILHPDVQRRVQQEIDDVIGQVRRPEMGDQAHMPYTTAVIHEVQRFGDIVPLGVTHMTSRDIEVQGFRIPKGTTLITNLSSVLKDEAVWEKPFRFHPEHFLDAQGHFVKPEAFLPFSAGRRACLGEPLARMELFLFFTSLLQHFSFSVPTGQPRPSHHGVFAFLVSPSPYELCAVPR
Chain of UniProt P29376 (whole entry, looked up): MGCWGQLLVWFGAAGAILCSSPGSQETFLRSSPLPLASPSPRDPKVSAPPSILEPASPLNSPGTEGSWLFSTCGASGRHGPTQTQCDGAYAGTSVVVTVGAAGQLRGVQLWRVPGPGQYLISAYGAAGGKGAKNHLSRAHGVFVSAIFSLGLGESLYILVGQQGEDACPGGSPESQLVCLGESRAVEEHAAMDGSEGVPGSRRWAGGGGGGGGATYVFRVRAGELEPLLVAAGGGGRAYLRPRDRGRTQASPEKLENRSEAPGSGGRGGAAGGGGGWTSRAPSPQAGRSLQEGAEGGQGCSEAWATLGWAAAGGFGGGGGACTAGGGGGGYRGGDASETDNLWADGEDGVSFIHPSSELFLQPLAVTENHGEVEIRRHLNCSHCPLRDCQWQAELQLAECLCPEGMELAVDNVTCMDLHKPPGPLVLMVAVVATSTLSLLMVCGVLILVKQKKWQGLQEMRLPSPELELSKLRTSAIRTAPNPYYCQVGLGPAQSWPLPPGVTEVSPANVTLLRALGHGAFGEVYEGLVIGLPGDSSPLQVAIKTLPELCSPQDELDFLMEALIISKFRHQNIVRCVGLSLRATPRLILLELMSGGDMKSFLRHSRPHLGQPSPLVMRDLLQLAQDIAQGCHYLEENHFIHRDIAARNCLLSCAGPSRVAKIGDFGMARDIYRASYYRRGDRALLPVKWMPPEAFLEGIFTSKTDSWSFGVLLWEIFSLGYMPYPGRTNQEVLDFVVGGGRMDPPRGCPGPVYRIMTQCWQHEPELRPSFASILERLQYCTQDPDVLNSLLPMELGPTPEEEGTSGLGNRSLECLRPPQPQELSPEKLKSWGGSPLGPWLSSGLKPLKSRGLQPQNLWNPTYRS

`CNC(=O)C1CCCN(C(=O)C2CC3CCC2N3C(=O)[C@@H]2C[C@@H](O)CN2C(=O)NCc2cccc(Cl)c2F)C1` (mixture of isomers) has a dextrorphan formation of 150 ng/mL (Cytochrome P450 2D6 (CYP2D6, Homo sapiens, UniProt P10635); enzyme activity, inhibitor, time-dependent inhibition; 0.206 µM, preincubated without NADPH).
`COc1ccc(NC(=O)Nc2cc(C(C)(C)C)on2)cc1OC` gave an IC50 of 81 µM (Uncharacterized protein; enzyme activity, inhibitor, coupled colorimetric; added: E. coli pyrophosphatase coupling).
For `CC(C)C[C@H](NC(=O)[C@@H](CCCCNC(=O)[C@@H](Cc1ccccc1)NC(=O)CCCCCNC(=O)CN1CCN(CC(=O)O)CCN(CC(=O)O)CCN(CC(=O)O)CC1)NC(=O)[C@H](Cc1ccc(O)cc1)NC(=O)[C@H](CO)NC(=O)[C@H](Cc1c[nH]c2ccccc12)NC(=O)[C@H](Cc1c[nH]cn1)NC(=O)[C@@H]1CCC(=O)N1)C(=O)N[C@@H](CCCNC(=N)N)C(=O)N1CCC[C@H]1C(=O)NCC(N)=O` [indium-111 labelled], the tissue uptake was 6.65 ± 1.45 %ID/g (female athymic nude mice, kidneys; intravenous, 0.037 MBq, 1 h).
`CN1CCCNC(=O)c2cccc(c2)C(=O)NCCCN(C)CCCNc2cccc3c2C(=O)c2cccc(c2C3=O)NCCC1`: “log2 fold change” -1.19 (SAS; RNA-Seq, item: VIPAS39 mRNA; 1 µM, 6 h; baseline: untreated cells).
`COC1CN([C@H]2CC[C@H]([C@@]3(C)Oc4c(Cl)cc(C(=O)NCc5c(SC)cc(C)[nH]c5=O)c(C)c4O3)CC2)C1` — result for “log2 fold change”: 1.32 (RNA-seq, item: BMPR1A; human, whole blood; dose not given, 24 h; baseline: pretreatment baseline).
With `CNS(=O)(=O)Nc1nccc(Cc2c(C)c3ccc(Oc4ncccc4F)cc3oc2=O)c1F` the IC50 was 0.0026 µM (SNU-8; cell viability, CellTiter-Glo; 7 days).
`Cn1ncc2cc(-c3cncc(Cl)c3N3CCC4(CCNC4=O)CC3)ccc21` — result for “log2 fold change”: -1.11 (LS174T; gene expression, microarray, item: NCOA5 mRNA; concentration not given, 4 h; baseline: untreated cells).
`COc1cc(O)ccc1CCC(c1ccc(O)cc1)c1cc2c(c(C)c1O)OC(c1ccc(O)cc1)CC2` (mixture of isomers) gave a 12-HETE level of 4390 ± 555 pg/mL (human blood; 3 µM, added: A23187).
`c1ccc(-c2n[nH]cc2-c2ccnc3ccccc23)nc1` — result for “log2 fold change”: 0.06 (FUN31 (Candida albicans); kinase binding, MIB/MS competition; Candida albicans lysate; 1 µM; baseline: DMSO).
The IC50 of `C[N+]1(Cc2ccccc2)CCN(CCCN2c3ccccc3Sc3ccc(Cl)cc32)CC1` is reported as 92.7 µM (Uncharacterized protein; enzyme activity, inhibitor, coupled colorimetric; added: E. coli pyrophosphatase coupling).
`CCN(CC)CC(=O)Nc1cccc(-n2cc(-c3ccc4ccc(-c5cn(-c6cccc(NC(=O)CN(CC)CC)c6)nn5)cc4c3)nn2)c1` gave a fold regulation of 1.72 (RCC4; PCR angiogenesis array, item: NOTCH4; 5 x IC50, 2 h, normoxia; baseline: untreated).
`Nc1ncc(-c2cc(-c3cnn(CC(F)(F)F)c3)ncc2F)nc1C(=O)NC1CNCC(F)C1` (stereo not drawn) gave a remaining binding of 84% (TSSK3; KINOMEscan; 1 µM; baseline: DMSO control).
With `COCCOCCOCCNC(=O)Cc1cc(CC(=O)N[C@H]2C[C@H]3C(=O)Nc4cc(OCCOCCOCCOC)cc(n4)C(=O)N4CCC[C@H]4C(=O)Nc4cc(OCCOCCOCCOC)cc(n4)C(=O)N4CCC[C@H]4C(=O)Nc4cc(OCCOCCOCCOC)cc(n4)C(=O)N3C2)cc(CC(=O)N[C@H]2C[C@H]3C(=O)Nc4cc(OCCOCCOCCOC)cc(n4)C(=O)N4CCC[C@H]4C(=O)Nc4cc(OCCOCCOCCOC)cc(n4)C(=O)N4CCC[C@H]4C(=O)Nc4cc(OCCOCCOCCOC)cc(n4)C(=O)N3C2)c1` the TΔS was 24.6 ± 0.3 kJ mol^–1 (anion binding, ITC; phosphate buffer 35 mM; pH 7.4, 298 K, added: sodium sulfate).
With `CC(C)[C@H](NC(=O)[C@@H]1CSSC(C)(C)[C@H](NC(=O)[C@@H](N)CC(=O)O)C(=O)N[C@@H](Cc2ccccc2)C(=O)N[C@H](Cc2c[nH]c3ccccc23)C(=O)N[C@@H](CCCN)C(=O)N[C@@H](Cc2ccc(O)cc2)C(=O)N1)C(=O)O` the EC50 was 0.0011 ± 0.0009 µM (Urotensin-2 receptor (UTS2R, Homo sapiens, UniProt Q9UKP6); beta-arrestin 2 recruitment, agonist, BRET2 biosensor; HEK293; 10 min).
For `CCCC[C@H](NC(=O)CCCCCCCNC(=O)CN1CCN(CC(=O)O)CCN(CC(=O)O)CC1)C(=O)N[C@H]1CC(=O)NCCCC[C@@H](C(N)=O)NC(=O)[C@H](Cc2c[nH]c3ccccc23)NC(=O)[C@H](CCCNC(=N)N)NC(=O)[C@@H](Cc2ccccc2)NC(=O)[C@H](Cc2c[nH]cn2)NC1=O` [technetium-99m labelled], the tissue uptake was 1.48 ± 0.97 %ID (C57 mouse, intestine; intravenous, 0.037 MBq, 24 h).
With `CO[C@@H]1OC[C@@H](O)[C@H](O)[C@H]1O` the inhibition was 0% (Helicobacter pylori; microbial growth, broth dilution; 15.63 µg/mL).
`C=CC(=O)Nc1cccc(Cn2ncc3cnc(Nc4cnn(CCOC)c4)nc32)c1` gave a binding of 69% (human ABL1(F317I)-phosphorylated; KINOMEscan; 100 nM; baseline: control).
`CC=C(C)C(=O)OC1CC2C(C=C(C)C3C(OC(C)=O)CC(=O)C13C)OC(=O)C2C` (stereo not drawn) gave an inhibition of 0% (Helicobacter pylori; microbial growth, broth dilution; 7.81 µg/mL).
`O=C(NCCCN1CCC2(CC1)OCc1ccccc12)C1CCCN1Cc1ccccc1` (stereo not drawn) has a Ki of > 10 µM (Nociceptin receptor (OPRL1, Homo sapiens, UniProt P41146, D130A)).
`C/C=C(/C)C(=O)O[C@@H]1C=C(C)CC[C@]2(O)[C@@H](C(C)C)CC(=O)[C@]12C` has an inhibition of 0% (Helicobacter pylori; microbial growth, broth dilution; 125 µg/mL).
Under “log2 fold change”, `Cc1ncsc1-c1ccc(C(C)NC(=O)C2CC(O)CN2C(=O)C(NC(=O)CCCCCCCCCCN2CCCC(Nc3ncc(Cl)c(Nc4ccccc4S(=O)(=O)C(C)C)n3)C2)C(C)(C)C)cc1` (stereo not drawn) is recorded as -1.3 (22Rv1; RNA-seq, item: ZNF813 mRNA; concentration not given; baseline: DMSO).
The MIC50 of `C=C(NC(=O)c1csc(-c2nc3c(cc2O)-c2nc(cs2)C(=O)NC(C(C)O)C(=O)NC(=C(C)OC)c2nc(cs2)C(=O)NC2c4nc(cs4)C(=O)NC(COC(=O)c4c5c6c(cccc6n4O)COC(=O)C(OC4CC(C)(O)C(N(C)C)C(C)O4)C2OC5)c2nc-3cs2)n1)C(N)=O` (stereo not drawn) is reported as 0.0156 µg/mL (≈ 0.0109 µM) (Staphylococcus aureus; MRSA, 10 isolates; pH 7.0).
For `Cc1nn(-c2cccc(N)c2)c(=O)c2cnc(Nc3ccc(N4CCNCC4)cc3)nc12`, the IC50 was > 10 µM (Leukocyte tyrosine kinase receptor (LTK, Homo sapiens, UniProt P29376); enzyme activity, inhibitor).
For `C=CC(=O)N1[C@@H](c2ccc3c(c2)OCO3)c2[nH]c3ccccc3c2C[C@H]1C(=O)N1CCN(C)CC1`, the relative co-enrichment was 87% (human cyclin E1 wild type-3xFLAG:CDK2; co-IP with TMT proteomics, item: ELP5; concentration not given, Q8TE02; baseline: wild type DMSO).
